Experimental data from different studies.
Numbered parts are unrelated; each lists some results of a single study. “And” joins repeats or separate records; there may be more than shown.
Sequence of UniProt P10721 (whole entry, unmodified, looked up): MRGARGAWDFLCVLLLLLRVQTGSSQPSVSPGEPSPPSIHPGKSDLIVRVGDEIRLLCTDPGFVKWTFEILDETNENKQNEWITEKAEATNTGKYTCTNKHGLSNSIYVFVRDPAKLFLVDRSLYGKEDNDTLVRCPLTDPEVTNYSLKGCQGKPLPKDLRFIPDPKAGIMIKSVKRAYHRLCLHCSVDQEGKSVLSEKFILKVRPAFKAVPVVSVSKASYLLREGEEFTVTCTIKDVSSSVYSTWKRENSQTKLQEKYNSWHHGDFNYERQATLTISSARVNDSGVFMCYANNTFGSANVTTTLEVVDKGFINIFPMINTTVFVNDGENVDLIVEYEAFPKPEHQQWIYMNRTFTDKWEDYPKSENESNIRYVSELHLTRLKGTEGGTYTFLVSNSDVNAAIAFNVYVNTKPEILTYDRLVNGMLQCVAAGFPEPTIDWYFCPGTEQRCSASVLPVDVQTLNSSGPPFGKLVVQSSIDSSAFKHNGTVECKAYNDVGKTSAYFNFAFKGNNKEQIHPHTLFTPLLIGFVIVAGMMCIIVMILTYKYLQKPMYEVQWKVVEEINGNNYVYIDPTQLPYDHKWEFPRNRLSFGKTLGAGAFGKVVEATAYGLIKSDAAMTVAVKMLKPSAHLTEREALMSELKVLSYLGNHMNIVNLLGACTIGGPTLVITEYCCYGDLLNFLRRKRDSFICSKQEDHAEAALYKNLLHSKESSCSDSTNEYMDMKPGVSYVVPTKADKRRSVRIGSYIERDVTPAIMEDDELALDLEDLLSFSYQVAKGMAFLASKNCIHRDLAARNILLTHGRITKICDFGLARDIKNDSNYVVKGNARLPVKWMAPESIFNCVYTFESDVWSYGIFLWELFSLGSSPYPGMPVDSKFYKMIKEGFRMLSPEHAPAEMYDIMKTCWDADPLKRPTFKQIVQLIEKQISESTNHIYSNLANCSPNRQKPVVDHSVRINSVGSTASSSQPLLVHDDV
Sequence of UniProt P04629 (whole entry, looked up): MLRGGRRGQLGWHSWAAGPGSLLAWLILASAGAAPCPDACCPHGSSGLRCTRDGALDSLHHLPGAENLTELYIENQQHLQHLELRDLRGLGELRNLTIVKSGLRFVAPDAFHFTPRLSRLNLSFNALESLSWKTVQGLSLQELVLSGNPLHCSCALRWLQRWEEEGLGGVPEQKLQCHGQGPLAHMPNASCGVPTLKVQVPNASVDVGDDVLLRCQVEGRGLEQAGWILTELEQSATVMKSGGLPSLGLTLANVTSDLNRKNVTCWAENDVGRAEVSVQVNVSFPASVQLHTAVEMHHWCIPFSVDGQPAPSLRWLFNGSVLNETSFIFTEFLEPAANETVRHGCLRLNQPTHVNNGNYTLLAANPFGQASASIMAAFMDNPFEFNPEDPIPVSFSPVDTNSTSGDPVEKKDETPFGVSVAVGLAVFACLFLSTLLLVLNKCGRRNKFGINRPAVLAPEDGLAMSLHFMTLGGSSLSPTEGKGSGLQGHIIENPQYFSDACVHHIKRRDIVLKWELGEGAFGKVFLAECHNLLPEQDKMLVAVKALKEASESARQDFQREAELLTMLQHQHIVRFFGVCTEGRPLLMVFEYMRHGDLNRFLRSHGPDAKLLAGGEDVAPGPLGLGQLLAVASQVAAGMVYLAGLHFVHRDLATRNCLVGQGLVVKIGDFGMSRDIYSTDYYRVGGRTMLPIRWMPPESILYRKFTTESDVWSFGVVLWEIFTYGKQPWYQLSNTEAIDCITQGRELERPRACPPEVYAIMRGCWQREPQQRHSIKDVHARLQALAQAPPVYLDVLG
Sequence of UniProt P35626 (whole entry, looked up): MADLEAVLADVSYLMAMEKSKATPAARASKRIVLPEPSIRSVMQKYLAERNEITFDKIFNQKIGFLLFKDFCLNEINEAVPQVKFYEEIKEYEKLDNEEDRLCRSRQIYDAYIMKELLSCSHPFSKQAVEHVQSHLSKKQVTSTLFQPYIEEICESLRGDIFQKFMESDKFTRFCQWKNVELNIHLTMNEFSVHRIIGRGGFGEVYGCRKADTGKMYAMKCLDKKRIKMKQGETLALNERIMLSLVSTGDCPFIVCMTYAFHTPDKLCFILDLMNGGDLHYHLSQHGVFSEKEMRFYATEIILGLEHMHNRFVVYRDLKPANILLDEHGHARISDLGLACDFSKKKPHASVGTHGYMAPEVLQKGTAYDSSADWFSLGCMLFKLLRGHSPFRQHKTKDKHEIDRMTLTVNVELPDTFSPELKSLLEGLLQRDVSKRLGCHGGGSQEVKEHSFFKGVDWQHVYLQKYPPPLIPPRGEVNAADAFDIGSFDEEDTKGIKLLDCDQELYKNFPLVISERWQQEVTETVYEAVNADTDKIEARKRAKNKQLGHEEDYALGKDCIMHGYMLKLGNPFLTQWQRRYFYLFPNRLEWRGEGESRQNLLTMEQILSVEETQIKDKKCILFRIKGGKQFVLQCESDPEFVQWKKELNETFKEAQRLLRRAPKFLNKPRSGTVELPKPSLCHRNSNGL
Sequence of UniProt O75716 (whole entry, looked up): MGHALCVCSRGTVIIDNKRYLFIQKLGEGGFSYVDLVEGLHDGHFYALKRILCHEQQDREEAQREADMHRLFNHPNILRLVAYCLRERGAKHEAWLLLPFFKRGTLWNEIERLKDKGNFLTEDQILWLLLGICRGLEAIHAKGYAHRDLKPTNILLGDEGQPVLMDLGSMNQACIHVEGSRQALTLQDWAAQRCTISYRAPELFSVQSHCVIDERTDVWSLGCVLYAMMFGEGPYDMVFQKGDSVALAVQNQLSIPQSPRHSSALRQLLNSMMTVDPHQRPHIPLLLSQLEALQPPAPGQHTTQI
Sequence of UniProt P19784 (whole entry, looked up): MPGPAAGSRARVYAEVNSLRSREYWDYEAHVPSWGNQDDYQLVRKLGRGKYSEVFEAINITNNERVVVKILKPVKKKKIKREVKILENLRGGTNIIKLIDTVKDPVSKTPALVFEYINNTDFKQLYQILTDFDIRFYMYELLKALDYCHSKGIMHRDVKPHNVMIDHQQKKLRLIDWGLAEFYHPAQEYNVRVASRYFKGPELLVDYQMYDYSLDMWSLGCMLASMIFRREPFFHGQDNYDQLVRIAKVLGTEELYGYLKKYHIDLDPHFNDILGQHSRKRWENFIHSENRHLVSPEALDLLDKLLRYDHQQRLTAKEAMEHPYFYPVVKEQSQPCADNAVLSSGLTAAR
Sequence of UniProt P49840 (whole entry, looked up): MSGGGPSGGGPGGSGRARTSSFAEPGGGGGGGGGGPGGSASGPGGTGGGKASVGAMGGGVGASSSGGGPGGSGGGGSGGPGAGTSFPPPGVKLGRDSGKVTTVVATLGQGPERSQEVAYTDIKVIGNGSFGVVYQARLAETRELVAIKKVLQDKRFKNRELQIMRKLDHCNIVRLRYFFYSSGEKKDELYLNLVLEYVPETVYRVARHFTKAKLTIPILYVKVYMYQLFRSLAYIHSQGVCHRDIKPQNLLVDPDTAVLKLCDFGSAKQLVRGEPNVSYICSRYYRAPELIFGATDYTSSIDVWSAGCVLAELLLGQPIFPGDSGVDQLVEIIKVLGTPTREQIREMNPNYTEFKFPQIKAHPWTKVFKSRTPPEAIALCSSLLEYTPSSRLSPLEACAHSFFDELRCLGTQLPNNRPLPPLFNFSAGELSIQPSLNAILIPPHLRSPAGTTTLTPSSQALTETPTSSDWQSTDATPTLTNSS
Sequence of UniProt Q9UF33 (whole entry, looked up): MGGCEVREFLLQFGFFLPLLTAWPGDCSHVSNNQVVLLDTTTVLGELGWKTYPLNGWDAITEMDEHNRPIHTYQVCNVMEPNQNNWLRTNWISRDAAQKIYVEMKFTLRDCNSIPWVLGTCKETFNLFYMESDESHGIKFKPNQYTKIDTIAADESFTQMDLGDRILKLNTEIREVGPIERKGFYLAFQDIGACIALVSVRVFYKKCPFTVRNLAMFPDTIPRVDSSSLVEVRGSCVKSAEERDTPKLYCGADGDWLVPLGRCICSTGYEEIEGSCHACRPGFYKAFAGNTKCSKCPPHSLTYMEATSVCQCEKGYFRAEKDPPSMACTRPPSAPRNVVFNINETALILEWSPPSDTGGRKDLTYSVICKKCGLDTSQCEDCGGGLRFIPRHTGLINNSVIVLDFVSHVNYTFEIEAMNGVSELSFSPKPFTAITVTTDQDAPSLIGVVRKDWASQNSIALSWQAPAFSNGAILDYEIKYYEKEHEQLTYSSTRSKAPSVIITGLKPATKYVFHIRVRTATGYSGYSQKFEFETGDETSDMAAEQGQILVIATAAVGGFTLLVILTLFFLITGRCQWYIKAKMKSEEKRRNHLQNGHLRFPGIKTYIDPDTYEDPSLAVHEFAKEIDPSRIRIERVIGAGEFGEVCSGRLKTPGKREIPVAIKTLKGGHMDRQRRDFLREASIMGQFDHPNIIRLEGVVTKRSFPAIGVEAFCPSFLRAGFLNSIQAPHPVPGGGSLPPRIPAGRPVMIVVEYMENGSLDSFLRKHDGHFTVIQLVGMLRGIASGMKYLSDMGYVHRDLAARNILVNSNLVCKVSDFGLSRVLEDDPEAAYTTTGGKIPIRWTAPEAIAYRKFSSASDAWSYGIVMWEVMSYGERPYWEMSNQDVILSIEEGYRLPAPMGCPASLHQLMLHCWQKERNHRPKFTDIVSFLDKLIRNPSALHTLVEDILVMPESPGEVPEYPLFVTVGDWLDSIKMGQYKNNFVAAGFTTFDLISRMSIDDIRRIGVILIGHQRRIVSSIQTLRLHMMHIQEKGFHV
Sequence of UniProt Q00532 (whole entry, looked up): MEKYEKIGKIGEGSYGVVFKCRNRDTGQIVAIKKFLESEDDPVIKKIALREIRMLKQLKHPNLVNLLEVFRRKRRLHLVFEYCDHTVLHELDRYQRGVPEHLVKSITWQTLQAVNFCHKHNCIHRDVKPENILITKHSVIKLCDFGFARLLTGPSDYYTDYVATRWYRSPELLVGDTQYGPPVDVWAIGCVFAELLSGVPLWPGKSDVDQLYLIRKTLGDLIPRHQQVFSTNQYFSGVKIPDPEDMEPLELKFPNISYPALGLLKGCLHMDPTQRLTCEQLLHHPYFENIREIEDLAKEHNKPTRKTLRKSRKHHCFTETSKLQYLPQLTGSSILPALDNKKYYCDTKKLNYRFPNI

Study 1 — cell line: HEK-293T; effect on: pseudovirus infection; technique: FDA-approved drug library counter-screen; organism: VSV pseudotyped with VSV-G; concentration: 10 µM; time: 16 h; relative to: vehicle-treated
`Cc1c(OCC(F)(F)F)ccnc1C[S+]([O-])c1nc2ccccc2[nH]1` (centres unmarked) gave a GFP-positive cells of 115%.
With `CCCCc1nc(Cl)c(CO)n1Cc1ccc(-c2ccccc2-c2nn[nH]n2)cc1` the GFP-positive cells was 91.8%.
`CCOC(=O)c1ccc(C#Cc2ccc3c(c2)C(C)(C)CCS3)nc1` gave a GFP-positive cells of 138%.
The GFP-positive cells of `Cc1cccn2c(=O)c(-c3nnn[nH]3)cnc12` is reported as 109%.
For `CN1C(C(=O)Nc2ccccn2)=C(O)c2ccccc2S1(=O)=O`, the GFP-positive cells was 81.8%.
With `Cc1cn([C@@H]2C[C@@H](O)[C@H](CO)O2)c(=O)[nH]c1=O` the GFP-positive cells was 110%.
`CCCCC(=O)N(Cc1ccc(-c2ccccc2-c2nnn[nH]2)cc1)[C@H](C(=O)O)C(C)C` gave a GFP-positive cells of 112%.
`CCCCC(=O)O[C@]1(C(=O)CO)CC[C@H]2[C@@H]3CCC4=CC(=O)CC[C@]4(C)[C@H]3[C@@H](O)C[C@@]21C` gave a GFP-positive cells of 87.6%.
The GFP-positive cells of `Cc1cc(C)nc(NS(=O)(=O)c2ccc(N)cc2)n1` is reported as 83.9%.
`CN(C)C/C=C/C(=O)Nc1cc2c(Nc3ccc(F)c(Cl)c3)ncnc2cc1O[C@H]1CCOC1` gave a GFP-positive cells of 89.4%.
The GFP-positive cells of `CCCCCCCC(=O)N[C@H](CN1CCCC1)[C@H](O)c1ccc2c(c1)OCCO2` is reported as 124%.
With `N#C/C(=C1/SC[C@@H](c2ccc(Cl)cc2Cl)S1)n1ccnc1` the GFP-positive cells was 116%.
The GFP-positive cells of `CC1(C)S[C@@H]2[C@H](NC(=O)[C@H](N)c3ccccc3)C(=O)N2[C@H]1C(=O)O` is reported as 90.5%.
With `O=C(O)CCCc1ccccc1` the GFP-positive cells was 88.7%.
The GFP-positive cells of `CC(C)NCC(O)COc1cccc2[nH]ccc12` (centres unmarked) is reported as 84.5%.
With `CN(C)/N=N/c1[nH]cnc1C(N)=O` the GFP-positive cells was 107%.
The GFP-positive cells of `Cc1ccsc1C(=CCCN1CCC[C@@H](C(=O)O)C1)c1sccc1C` is reported as 114%.
The GFP-positive cells of `CN(C)CCCN1c2ccccc2Sc2ccc(Cl)cc21` is reported as 95.7%.
For `CN1CCCC(n2nc(Cc3ccc(Cl)cc3)c3ccccc3c2=O)CC1` (centres unmarked), the GFP-positive cells was 102%.
For `CN1CCC(=C2c3ccccc3CCn3c(C=O)cnc32)CC1`, the GFP-positive cells was 107%.
The GFP-positive cells of `COc1cc2nc(N3CCN(C(=O)C4COc5ccccc5O4)CC3)nc(N)c2cc1OC` (centres unmarked) is reported as 94.5%.
The GFP-positive cells of `Cc1cnc(C(=O)N[C@H]2CCCCC/C=C\[C@@H]3C[C@@]3(C(=O)NS(=O)(=O)C3CC3)NC(=O)[C@@H]3C[C@@H](Oc4nc5ccccc5c5ccccc45)CN3C2=O)cn1` is reported as 102%.
`CC[C@@H](CO)NCCN[C@@H](CC)CO` has a GFP-positive cells of 91.5%.
The GFP-positive cells of `Oc1c(Cl)cc(Cl)c2cccnc12` is reported as 45.4%.
For `CC(=O)Nc1cccc(-n2c(=O)n(C3CC3)c(=O)c3c(Nc4ccc(I)cc4F)n(C)c(=O)c(C)c32)c1`, the GFP-positive cells was 103%.

Study 2 — organism: Cryptosporidium parvum; host: neonatal calves; dose: dose not given
SMILES: CNC(=O)c1ccc(-c2cnn3ccc(C(=O)N(C)c4ccc(Cl)c(C(=O)OC)c4)cc23)cc1
The “fecal oocyst count” was 23000 oocysts/g feces and 1360 oocysts/g feces and 73800 oocysts/g feces and 51800 oocysts/g feces and 3340 oocysts/g feces and 4300 oocysts/g feces and 1930 oocysts/g feces (day 1 post-treatment).
It gave 3340 oocysts/g feces and 23000 oocysts/g feces and 73800 oocysts/g feces and 1360 oocysts/g feces and 1930 oocysts/g feces and 4300 oocysts/g feces and 51800 oocysts/g feces for “fecal oocyst count” (qPCR; day 1 post-treatment).
It gave 21 oocysts/g feces and 0 oocysts/g feces for “fecal oocyst count” (qPCR; day 13 post-treatment).
It gave 18000 oocysts/g feces and 54 oocysts/g feces and 1550 oocysts/g feces and 1160 oocysts/g feces for “fecal oocyst count” (qPCR; day 4 post-treatment).
The “fecal oocyst count” was 49 oocysts/g feces and 0 oocysts/g feces and 127 oocysts/g feces and 18 oocysts/g feces and 188 oocysts/g feces (qPCR; day 8 post-treatment).
The “fecal oocyst count” was 473 oocysts/g feces and 36 oocysts/g feces and 2120 oocysts/g feces and 82 oocysts/g feces and 0 oocysts/g feces and 354 oocysts/g feces (qPCR; day 6 post-treatment).
day 5 post-treatment — “fecal oocyst count”: 129 oocysts/g feces and 2220 oocysts/g feces and 61 oocysts/g feces and 218 oocysts/g feces and 225 oocysts/g feces and 5710 oocysts/g feces and 10800 oocysts/g feces.

Study 3 — concentration: 1 µM
Compound: N#CC1(c2ccccn2)CCN(Cc2cc(C(=O)O)c(=O)n3ccccc23)CC1
It gave 86% for remaining binding (Ephrin type-A receptor 6 (EPHA6, Homo sapiens, UniProt Q9UF33); cell-free assay, competition with immobilised ligand).
For High affinity nerve growth factor receptor (NTRK1, Homo sapiens, UniProt P04629); cell-free assay, competition with immobilised ligand: remaining binding read 88%.
It gave 92% for remaining binding (Vascular endothelial growth factor receptor 1 (FLT1, Homo sapiens, UniProt P17948); cell-free assay, competition with immobilised ligand).
It gave 82% for remaining binding (Cyclin-dependent kinase 19 (CDK19, Homo sapiens, UniProt Q9BWU1); competition binding).
It gave 100% for remaining binding (Receptor-type tyrosine-protein kinase FLT3 (FLT3, Homo sapiens, UniProt P36888, R834Q); cell-free assay, competition with immobilised ligand).
Cyclin-dependent kinase 15 (CDK15, Homo sapiens, UniProt Q96Q40); cell-free assay, competition with immobilised ligand — remaining binding: 100%.
The remaining binding was 100% (Tyrosine-protein kinase ABL1, phosphorylated (ABL1, Homo sapiens, UniProt P00519); cell-free assay, competition with immobilised ligand).
It gave 100% for remaining binding (Serine/threonine-protein kinase 16 (STK16, Homo sapiens, UniProt O75716); cell-free assay, competition with immobilised ligand).
The remaining binding was 100% (Serine/threonine-protein kinase Nek5 (NEK5, Homo sapiens, UniProt Q6P3R8); cell-free assay, competition with immobilised ligand).
The remaining binding was 50% (Microtubule-associated serine/threonine-protein kinase 1 (MAST1, Homo sapiens, UniProt Q9Y2H9); cell-free assay, competition with immobilised ligand).
For G protein-coupled receptor kinase 3 (GRK3, Homo sapiens, UniProt P35626); cell-free assay, competition with immobilised ligand: remaining binding read 95%.
The remaining binding was 88% (Serine/threonine-protein kinase PknB (pknB, Mycobacterium tuberculosis, UniProt P9WI81); cell-free assay, competition with immobilised ligand).
For Rhodopsin kinase GRK1 (GRK1, Homo sapiens, UniProt Q15835); cell-free assay, competition with immobilised ligand: remaining binding read 84%.
For Hepatocyte growth factor receptor (MET, Homo sapiens, UniProt P08581, M1250T); cell-free assay, competition with immobilised ligand: remaining binding read 96%.
For Casein kinase II subunit alpha' (CSNK2A2, Homo sapiens, UniProt P19784); cell-free assay, competition with immobilised ligand: remaining binding read 86%.
ALK tyrosine kinase receptor (ALK, Homo sapiens, UniProt Q9UM73, C1156Y); cell-free assay, competition with immobilised ligand — remaining binding: 100%.
For Phosphatidylinositol 4,5-bisphosphate 3-kinase catalytic subunit alpha isoform (PIK3CA, Homo sapiens, UniProt P42336, E542K); cell-free assay, competition with immobilised ligand: remaining binding read 87%.
For Mitogen-activated protein kinase 9 (MAPK9, Homo sapiens, UniProt P45984); cell-free assay, competition with immobilised ligand: remaining binding read 83%.
It gave 100% for remaining binding (Mitogen-activated protein kinase 6 (MAPK6, Homo sapiens, UniProt Q16659); cell-free assay, competition with immobilised ligand).
RAC-alpha serine/threonine-protein kinase (AKT1, Homo sapiens, UniProt P31749); cell-free assay, competition with immobilised ligand — remaining binding: 100%.
For Tyrosine-protein kinase Tec (TEC, Homo sapiens, UniProt P42680); binding, competition with immobilised ligand: remaining binding read 100%.
It gave 85% for remaining binding (Mast/stem cell growth factor receptor Kit (KIT, Homo sapiens, UniProt P10721, D816H); cell-free assay, competition with immobilised ligand).
Homeodomain-interacting protein kinase 1 (HIPK1, Homo sapiens, UniProt Q86Z02); cell-free assay, competition with immobilised ligand — remaining binding: 100%.
Cyclin-dependent kinase-like 1 (CDKL1, Homo sapiens, UniProt Q00532); cell-free assay, competition with immobilised ligand — remaining binding: 100%.
Glycogen synthase kinase-3 alpha (GSK3A, Homo sapiens, UniProt P49840); cell-free assay, competition with immobilised ligand — remaining binding: 100%.

Other studies, line by line — cell line: HaCaT; concentration: 100 µM; time: 18 h
With `C[C@]12CC[C@H](O)CC1=CC[C@@H]1[C@@H]2CC[C@]2(C)C(=O)CC[C@@H]12` the viability was 65.6%.
`COc1cc2c(cc1OC)C13CCN4CC5=CCOC6CC(=O)N2C1C6C5CC43` (centres unmarked) has a viability of 94.6%.
